Results pooled from the literature.
Every numbered part comes from another study and shows a few of its results, in no order.

Set 1 — technique: RNA Bind-n-Seq; molecule type: RNA; matrix: in vitro; concentration: 200 nM; notes: whole 134-nt RNA, ends assumed; with: 150 mM LiCl; relative to: input library; direction: higher = stronger binding; library: 7-deaza-guanosine replaces G
Target: Ras GTPase-activating protein-binding protein 1, full length (G3BP1, Homo sapiens, UniProt Q13283)
Chain of UniProt Q13283 (whole entry, looked up): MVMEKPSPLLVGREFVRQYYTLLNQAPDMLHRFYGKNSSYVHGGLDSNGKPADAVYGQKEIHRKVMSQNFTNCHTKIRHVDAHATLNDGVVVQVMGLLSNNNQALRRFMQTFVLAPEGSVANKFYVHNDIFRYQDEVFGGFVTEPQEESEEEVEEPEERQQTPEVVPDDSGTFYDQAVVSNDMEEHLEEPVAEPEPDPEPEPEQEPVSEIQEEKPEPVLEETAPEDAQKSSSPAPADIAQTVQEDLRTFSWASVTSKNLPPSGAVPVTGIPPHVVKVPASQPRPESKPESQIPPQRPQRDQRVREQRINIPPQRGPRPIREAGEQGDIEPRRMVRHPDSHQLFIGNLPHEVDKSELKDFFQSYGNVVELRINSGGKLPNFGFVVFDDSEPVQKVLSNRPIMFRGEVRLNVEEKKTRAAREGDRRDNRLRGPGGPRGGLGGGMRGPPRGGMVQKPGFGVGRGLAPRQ
The log2 enrichment of `GGGAGUUCUACAGUCCGACGAUCUCAAGUCCUGUGCUACACAUCGUAUGUACCGAAUCGGGGAAAGGAAAGGAAAGGGAAAGUAUUAUGUUACGCCGUUCGGAUCUGCACUUCUGGAAUUCUCGGGUGUCAAGG` is reported as -0.196.
`GGGAGUUCUACAGUCCGACGAUCCAAGUCCUGUGCUACACAUCGUAUGUACCGAAUCGGAAAAGGGAAAAGGAAAAGGAAAGUAUUAUGUUACGCCGUUCGGAUCUGCACUUCUGGAAUUCUCGGGUGUCAAGG` has a log2 enrichment of -0.718.
`GGGAGUUCUACAGUCCGACGAUCAGUCCUGUGCUACACAUCGUAUGUACCGAAUCGGCCCCCGGGCCCCCGGGCCCCCGGGAAAGUAUUAUGUUACGCCGUUCGGAUCUGCACUGGAAUUCUCGGGUGUCAAGG` gave a log2 enrichment of -1.36.

Set 2 — technique: universal PBM; molecule type: double-stranded DNA, one strand shown; matrix: in vitro; concentration: not given; direction: higher = stronger binding
Target: Sal-like protein 4, full length isoform B (SALL4, Homo sapiens, UniProt Q9UJQ4-2, residues 1-616)
Notes: 8-mer, flanks averaged, mean of replicates
The E-score of `GATAGCAC` is reported as -0.0552.
`CATGTCAG` gave an E-score of -0.0869.
For `CAACTCGG`, the E-score was -0.279.
The E-score of `ATTGGGCC` is reported as -0.117.
`GACAAGCA` gave an E-score of -0.0745.

Single results of other studies
Under cross-linked residues, `RAB8A (Homo sapiens, UniProt P61006)` is recorded as “K153 to D154” (RIPOR2 (Homo sapiens, UniProt Q9Y4F9); cross-linking MS; cell fractions; with: DMTMM).
The fold induction of `PhoQ, residues 284 288 289 292 302 303 SMYGEC` is reported as 1.89 (PhoP, residues 12 14 15 18 19 SQCLL (Escherichia coli, UniProt P23836); Sort-seq, measured: YFP reporter; E. coli; PhoQ-PhoP variant library, with: 10 µM Mg2+; relative to: high Mg2+ state, higher = stronger signaling).

For quick reference, copied from above (single results of other studies):
Under cross-linked residues, `RAB8A (Homo sapiens, UniProt P61006)` is recorded as “K153 to D154” (RIPOR2 (Homo sapiens, UniProt Q9Y4F9); cross-linking MS; cell fractions; with: DMTMM).
